# Results from different studies.
# A part holds a random share of what one study measured. Values joined by “and” are separate records of one study, mostly repeats; a detail may differ. Positions count from the first letter of the parent shown.
# Chain of UniProt O75417 (whole entry, unmodified, looked up): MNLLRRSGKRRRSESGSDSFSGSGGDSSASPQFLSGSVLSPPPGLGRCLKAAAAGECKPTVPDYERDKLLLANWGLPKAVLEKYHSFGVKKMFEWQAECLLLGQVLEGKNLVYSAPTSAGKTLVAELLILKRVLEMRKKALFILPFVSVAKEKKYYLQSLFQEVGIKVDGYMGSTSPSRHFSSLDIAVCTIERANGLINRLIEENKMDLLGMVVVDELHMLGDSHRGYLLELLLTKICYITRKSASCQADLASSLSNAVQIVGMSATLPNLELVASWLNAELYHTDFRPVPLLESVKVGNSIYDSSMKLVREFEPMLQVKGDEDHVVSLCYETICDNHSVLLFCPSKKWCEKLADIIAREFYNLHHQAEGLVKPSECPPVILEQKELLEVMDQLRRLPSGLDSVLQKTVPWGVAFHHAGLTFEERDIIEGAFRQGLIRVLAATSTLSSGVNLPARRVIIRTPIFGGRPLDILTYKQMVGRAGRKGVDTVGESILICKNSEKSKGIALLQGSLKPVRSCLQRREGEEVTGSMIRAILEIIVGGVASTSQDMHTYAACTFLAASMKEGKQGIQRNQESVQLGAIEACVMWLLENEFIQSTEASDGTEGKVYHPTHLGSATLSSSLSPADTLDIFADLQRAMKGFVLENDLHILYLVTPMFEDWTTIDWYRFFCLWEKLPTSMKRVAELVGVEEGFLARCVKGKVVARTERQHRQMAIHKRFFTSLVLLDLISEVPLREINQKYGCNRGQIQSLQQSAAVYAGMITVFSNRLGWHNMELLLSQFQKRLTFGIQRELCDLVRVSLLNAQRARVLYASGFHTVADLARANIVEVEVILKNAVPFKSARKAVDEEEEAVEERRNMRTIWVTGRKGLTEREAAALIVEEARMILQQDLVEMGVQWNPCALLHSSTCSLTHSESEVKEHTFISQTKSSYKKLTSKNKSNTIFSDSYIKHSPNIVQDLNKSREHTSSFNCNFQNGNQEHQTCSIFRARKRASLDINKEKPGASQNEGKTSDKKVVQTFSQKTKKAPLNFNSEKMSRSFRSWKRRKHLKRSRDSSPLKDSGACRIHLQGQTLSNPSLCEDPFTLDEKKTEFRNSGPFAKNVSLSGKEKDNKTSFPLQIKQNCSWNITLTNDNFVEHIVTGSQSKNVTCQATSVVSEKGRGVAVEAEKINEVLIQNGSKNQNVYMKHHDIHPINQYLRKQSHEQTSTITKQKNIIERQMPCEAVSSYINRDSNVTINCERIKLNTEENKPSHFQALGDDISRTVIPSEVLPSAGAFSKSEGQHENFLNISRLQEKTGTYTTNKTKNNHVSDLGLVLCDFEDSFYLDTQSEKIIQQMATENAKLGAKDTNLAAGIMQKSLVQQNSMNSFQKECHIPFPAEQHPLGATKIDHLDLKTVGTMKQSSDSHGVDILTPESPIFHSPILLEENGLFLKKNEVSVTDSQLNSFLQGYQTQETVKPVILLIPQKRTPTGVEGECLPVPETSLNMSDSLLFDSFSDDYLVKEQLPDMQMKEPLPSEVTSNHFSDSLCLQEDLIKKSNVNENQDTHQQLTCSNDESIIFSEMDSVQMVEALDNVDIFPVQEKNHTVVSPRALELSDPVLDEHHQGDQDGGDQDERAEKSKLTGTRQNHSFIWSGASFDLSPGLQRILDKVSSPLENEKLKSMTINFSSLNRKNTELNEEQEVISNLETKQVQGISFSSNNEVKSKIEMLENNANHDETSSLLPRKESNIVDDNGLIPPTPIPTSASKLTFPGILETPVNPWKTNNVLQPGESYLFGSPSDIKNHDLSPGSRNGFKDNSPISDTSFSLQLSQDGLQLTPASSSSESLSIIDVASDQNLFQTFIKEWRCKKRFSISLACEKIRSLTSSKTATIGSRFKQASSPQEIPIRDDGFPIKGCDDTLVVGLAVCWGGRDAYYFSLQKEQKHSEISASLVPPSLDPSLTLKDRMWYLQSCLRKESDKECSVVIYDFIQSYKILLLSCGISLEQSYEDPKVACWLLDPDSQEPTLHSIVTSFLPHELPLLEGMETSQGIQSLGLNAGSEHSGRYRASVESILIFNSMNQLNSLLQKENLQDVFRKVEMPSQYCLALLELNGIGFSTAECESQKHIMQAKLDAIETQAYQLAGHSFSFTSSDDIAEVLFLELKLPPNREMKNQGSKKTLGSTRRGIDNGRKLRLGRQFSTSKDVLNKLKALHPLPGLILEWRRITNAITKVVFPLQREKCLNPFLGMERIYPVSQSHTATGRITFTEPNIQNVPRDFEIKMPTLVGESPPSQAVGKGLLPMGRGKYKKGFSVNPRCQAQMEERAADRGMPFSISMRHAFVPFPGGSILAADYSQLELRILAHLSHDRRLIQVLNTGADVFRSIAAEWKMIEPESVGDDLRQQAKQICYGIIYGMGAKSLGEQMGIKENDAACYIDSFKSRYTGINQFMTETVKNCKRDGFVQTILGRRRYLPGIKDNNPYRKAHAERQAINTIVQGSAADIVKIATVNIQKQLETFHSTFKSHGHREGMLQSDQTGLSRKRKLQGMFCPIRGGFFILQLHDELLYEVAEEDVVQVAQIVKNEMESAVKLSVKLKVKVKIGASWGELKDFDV
# Chain of UniProt P17106 (whole entry, looked up): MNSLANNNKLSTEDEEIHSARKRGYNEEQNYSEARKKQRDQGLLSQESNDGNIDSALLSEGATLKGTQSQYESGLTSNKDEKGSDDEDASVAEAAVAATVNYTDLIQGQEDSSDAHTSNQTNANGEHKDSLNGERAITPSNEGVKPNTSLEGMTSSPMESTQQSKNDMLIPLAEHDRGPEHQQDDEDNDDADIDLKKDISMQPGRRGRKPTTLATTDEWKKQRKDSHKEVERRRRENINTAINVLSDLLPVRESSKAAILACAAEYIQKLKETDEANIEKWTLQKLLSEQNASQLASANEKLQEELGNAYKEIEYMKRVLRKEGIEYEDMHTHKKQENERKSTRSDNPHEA

# Series 1 — target: tungstate, free oxyanion; method: microfluidic competitive inhibition; medium: in vitro, cell-free expressed; concentration: not given; reading: lower = stronger binding
# Notes: derived from inhibition constants, unchanged parent 2230 nM
# Starting sequence: PafA, mature enzyme, eGFP fusion (Elizabethkingia meningoseptica, UniProt Q9KJX5); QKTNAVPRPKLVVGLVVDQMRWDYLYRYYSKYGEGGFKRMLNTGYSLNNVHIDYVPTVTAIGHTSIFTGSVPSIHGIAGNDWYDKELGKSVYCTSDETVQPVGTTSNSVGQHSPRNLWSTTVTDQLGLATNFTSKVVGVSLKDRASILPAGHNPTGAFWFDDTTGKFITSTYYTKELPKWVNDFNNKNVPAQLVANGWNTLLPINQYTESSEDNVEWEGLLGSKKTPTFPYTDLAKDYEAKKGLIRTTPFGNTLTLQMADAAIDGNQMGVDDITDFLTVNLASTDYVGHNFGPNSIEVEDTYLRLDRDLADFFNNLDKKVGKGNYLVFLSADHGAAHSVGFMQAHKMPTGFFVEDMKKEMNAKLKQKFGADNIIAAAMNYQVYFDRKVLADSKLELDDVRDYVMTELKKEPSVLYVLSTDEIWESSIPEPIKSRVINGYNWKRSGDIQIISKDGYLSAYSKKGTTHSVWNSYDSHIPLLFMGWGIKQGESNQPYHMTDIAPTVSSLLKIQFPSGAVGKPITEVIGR
Change,oxyanion analog dissociation constant
R39V,2190 nM
L177G,1740 nM
Q381G,1890 nM
G88A,2300 nM
H51V,2060 nM
R443V,2550 nM
T98V,1780 nM
E212V,2910 nM

# Series 2 — effect on: phage display binding; method: phage display panning NGS; molecule type: peptide; relative to: OGT-panned over input library
# Target: UDP-N-acetylglucosamine--peptide N-acetylglucosaminyltransferase 110 kDa subunit (OGT, Homo sapiens, UniProt O15294)
# Residues (O15294 1-1046): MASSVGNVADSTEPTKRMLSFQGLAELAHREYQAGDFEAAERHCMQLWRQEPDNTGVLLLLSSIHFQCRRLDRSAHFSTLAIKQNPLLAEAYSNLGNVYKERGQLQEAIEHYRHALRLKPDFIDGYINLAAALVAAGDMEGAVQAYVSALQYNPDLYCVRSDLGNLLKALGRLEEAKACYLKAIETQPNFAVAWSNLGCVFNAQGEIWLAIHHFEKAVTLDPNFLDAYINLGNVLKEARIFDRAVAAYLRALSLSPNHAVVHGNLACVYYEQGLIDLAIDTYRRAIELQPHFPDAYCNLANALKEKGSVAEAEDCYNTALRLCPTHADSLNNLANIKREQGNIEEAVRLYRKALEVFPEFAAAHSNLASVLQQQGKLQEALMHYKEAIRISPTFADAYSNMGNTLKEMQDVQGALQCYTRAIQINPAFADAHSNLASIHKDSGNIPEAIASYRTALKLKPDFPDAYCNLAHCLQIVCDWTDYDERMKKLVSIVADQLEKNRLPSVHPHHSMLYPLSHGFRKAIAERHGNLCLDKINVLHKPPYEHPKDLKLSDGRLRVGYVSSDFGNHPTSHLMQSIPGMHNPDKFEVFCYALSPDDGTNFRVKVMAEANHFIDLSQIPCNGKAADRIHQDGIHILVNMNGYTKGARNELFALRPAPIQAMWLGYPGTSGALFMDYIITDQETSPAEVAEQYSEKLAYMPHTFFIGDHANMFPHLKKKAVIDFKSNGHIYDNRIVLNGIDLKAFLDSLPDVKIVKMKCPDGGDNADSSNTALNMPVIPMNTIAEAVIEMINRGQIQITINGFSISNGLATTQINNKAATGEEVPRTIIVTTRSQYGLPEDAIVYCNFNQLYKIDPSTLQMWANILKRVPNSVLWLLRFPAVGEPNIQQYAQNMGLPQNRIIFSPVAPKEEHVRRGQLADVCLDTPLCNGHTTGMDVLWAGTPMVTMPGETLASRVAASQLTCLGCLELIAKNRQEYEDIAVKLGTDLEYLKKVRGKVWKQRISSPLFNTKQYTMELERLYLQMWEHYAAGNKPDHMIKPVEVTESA
Molecule,log2 fold enrichment
HYRSHHTPTQYYYAN,2.75
QMEYYPQYQLRYMQV,1.49
VPYKHWHVHRGDDHF,2.67
VDIGTTYMPFYQITN,3.26
HTMWHAEHFTRYDVH,2.59
HSQHAIHHTIDNHA,3.49
ERNFTHHVHRDPHR,2.48
AQNYLPVYQIVWRDN,3.51

# Single results of other studies
Molecule,target or system,assay,test system,setting,how to read,endpoint,value
Cn1cc[nH]c1=S,HEK-293T,"pseudovirus infection, FDA-approved drug library counter-screen",VSV pseudotyped with VSV-G,"10 µM, 16 h",relative to: vehicle-treated,GFP-positive cells,88.2%
CN(N=O)C(=O)N[C@@H]1[C@@H](O)[C@H](O)[C@@H](CO)O[C@@H]1O,,,"mice, STZ diabetic neuropathy","dose not given, 28 days after STZ",,body weight,31 g and 34 g and 37.2 g and 32.9 g and 29 g
Cc1cccc([C@H](C)c2c[nH]cn2)c1C,"DNA polymerase theta, ATPase domain (POLQ, Homo sapiens, UniProt O75417)","enzyme activity, inhibitor",,77 µM,relative to: untreated,remaining activity,101%
Nc1ncn([C@H]2C[C@H](O)[C@@H](CO)O2)c(=O)n1,HEK-293T,"pseudovirus infection, FDA-approved drug library counter-screen",VSV pseudotyped with VSV-G,"10 µM, 16 h",relative to: vehicle-treated,GFP-positive cells,71%
CTAGTATTTTCACGTGATGCGCCTCACTGCGGATTCGTCTTGATTCGCTTGACGCTGCTG,"Centromere-binding protein 1, full length, N-terminal tag (CBF1, Saccharomyces cerevisiae, UniProt P17106, residues 1-351)",protein-binding microarray,"double-stranded DNA, one strand shown, in vitro","0.8 µM, whole 60-bp probe, no competitor",higher = stronger binding,fluorescence intensity,12100 a.u.

# A few entries again (series 1):
Change,oxyanion analog dissociation constant
L177G,1740 nM
